Measurements collected from several papers.
Lines come from different studies, so protocols differ. ± marks the error that the study gave.
Cell line: HepG2

SMILES | test | conditions | scale | endpoint | value
CC(=O)NC(C)(C)C(=O)N[C@@H](C)C(=O)NC(C)(C)C(=O)N[C@@H](C)C(=O)NC(C)(C)C(=O)N[C@@H](C)C(=O)N[C@@H](CCC(N)=O)C(=O)NC(C)(C)C(=O)N[C@@H](CC(C)C)C(=O)NC(C)(C)C(=O)NCC(=O)N[C@@H](CC(C)C)C(=O)NC(C)(C)C(=O)N1CCC[C@H]1C(=O)N[C@H](C(=O)NC(C)(C)C(=O)NC(C)(C)C(=O)N[C@@H](CCC(N)=O)C(=O)N[C@@H](CCC(N)=O)C(=O)N[C@H](CO)Cc1ccccc1)C(C)C | cytotoxicity, MTS | 48 h |  | EC50 | 5.77 ± 0.53 µM
CN1CCN(C2Cc3ccccc3Sc3ccc(Cl)cc32)CC1 (centres unmarked) | phospholipidosis induction, inducer, high-content imaging | 24 h, confirmation screen |  | EC50 | 6.9 ± 0.5 µM
CC[C@H](C)[C@H](NC(=O)[C@H](CO)NC(=O)[C@@H]1CCCN1C(=O)C(C)(C)NC(=O)[C@H](CC(C)C)NC(=O)[C@H](CC(N)=O)NC(=O)C(C)(C)NC(C)=O)C(=O)NC(C)(C)C(=O)N1CCC[C@H]1C(=O)N[C@](C)(CC)C(=O)N[C@@H](CC(C)C)C(=O)NC(C)(C)C(=O)N1CCC[C@H]1C(=O)N[C@H](CO)CC(C)C | cytotoxicity, MTS | 48 h |  | EC50 | > 25 µM
CC(C)(c1ccccc1)c1ccc(O)cc1 | Seahorse respirometry | concentration not given, 1 h, dosed at MMP IC50, together with: 1 µM FCCP | baseline: basal | OCR | 150.3 ± 1.35%
COc1ccc2c(c1)c(CCN1CCOCC1)c(C)n2C(=O)c1cccc(Cl)c1Cl | cell viability, ATP content | 24 h |  | IC50 | 66.6 ± 31.3 µM
CC[C@H](C)[C@H](NC(=O)C(C)(C)NC(=O)[C@H](CCC(N)=O)NC(=O)[C@H](C)NC(=O)C(C)(C)NC(=O)[C@H](C)NC(=O)C(C)(C)NC(=O)[C@H](C)NC(=O)C(C)(C)NC(C)=O)C(=O)NC(C)(C)C(=O)NCC(=O)N[C@@H](CC(C)C)C(=O)NC(C)(C)C(=O)N1CCC[C@H]1C(=O)N[C@H](C(=O)NC(C)(C)C(=O)N[C@](C)(CC)C(=O)N[C@@H](CCC(N)=O)C(=O)N[C@@H](CCC(N)=O)C(=O)N[C@H](CO)Cc1ccccc1)C(C)C | cytotoxicity, MTS | 48 h |  | EC50 | 3.35 ± 0.25 µM
N.N.[Cl][Pt][Cl] | cell growth or viability, MTT | 48 h |  | IC50 | 9.66 µM
CC[C@@]1(O)C(=O)OCc2c1cc1n(c2=O)Cc2cc3ccccc3nc2-1 | cell growth or viability, MTT | 48 h |  | IC50 | 0.07 µM
Oc1ccc(/C=C/c2cc(O)cc(O)c2)cc1 | Seahorse respirometry | concentration not given, 1 h, dosed at MMP IC50, together with: 1 µM FCCP | baseline: basal | OCR | 181.1 ± 1.52%
c1ccc2c(-c3cnn4cc(-c5ccc(N6CCNCC6)cc5)cnc34)ccnc2c1 | hepcidin mRNA expression, inhibitor, quantitative RT-PCR, item: hepcidin mRNA | 90 min, together with: IL-6 100 ng/mL |  | IC50 | ~0.005 µM
CN(C)c1ccc(C(=C2C=CC(=[N+](C)C)C=C2)c2ccccc2)cc1.CN(C)c1ccc(C(=C2C=CC(=[N+](C)C)C=C2)c2ccccc2)cc1.O=C(O)C(=O)O.O=C([O-])C(=O)O.O=C([O-])C(=O)O |  | MMP IC50, 1 h, together with: FCCP 1 µM | baseline: basal OCR | maximal OCR | 35.4 ± 0.72%
CC(C)[C@H]1c2ccc(F)cc2CC[C@@]1(CCN(C)CCCc1nc2ccccc2[nH]1)OC(=O)C1CC1 | phospholipidosis induction, inducer, high-content imaging | 24 h, confirmation screen |  | EC50 | 7.1 µM
Cc1cc2nc3c(=O)[nH]c(=O)nc-3n(C[C@H](O)[C@H](O)[C@H](O)CO)c2cc1C | Seahorse respirometry | concentration not given, 1 h, dosed at MMP IC50, together with: 1 µM FCCP | baseline: basal | OCR | 190.2 ± 1.86%
CC(N)Cc1c[nH]c2ccc(OCc3cccs3)cc12 (centres unmarked) | cell viability, ATP content | 24 h |  | IC50 | 45.7 ± 14.6 µM

For quick reference, copied from above:
SMILES | test | conditions | scale | endpoint | value
CC(N)Cc1c[nH]c2ccc(OCc3cccs3)cc12 (centres unmarked) | cell viability, ATP content | 24 h |  | IC50 | 45.7 ± 14.6 µM
